{"data": "Experimental data collected from several papers"}
{"SMILES": "Cc1c(C(=O)O)ccc2c3n(nc12)[C@@H]1[C@H](C3)N(CC2CC2)[C@@]2(C(=O)Nc3cc(Cl)ccc32)[C@H]1c1cccc(Cl)c1F", "test": "phase Ia trial, item: Dizziness", "test system": "cancer patients", "setting": "oral, dose not given", "adverse event incidence": "24%"}
{"SMILES": "Cc1c(Cl)c(C)[n+]([O-])c(Cl)c1-c1noc(-c2cc(O)c(O)c([N+](=O)[O-])c2)n1", "test": "item: Severe severity", "test system": "healthy Chinese subjects", "setting": "oral, 25 mg", "adverse event incidence": "0%"}
{"SMILES": "CC[C@H](C)[C@H](NC(=O)[C@H](Cc1ccccc1)NC(=O)[C@H](CCC(=O)O)NC(=O)[C@H](CCCCNC(=O)COCCOCCNC(=O)COCCOCCNC(=O)CC[C@H](NC(=O)CCCCCCCCCCCCCCCCC(=O)O)C(=O)O)NC(=O)[C@H](C)NC(=O)[C@H](C)NC(=O)[C@H](CCC(N)=O)NC(=O)CNC(=O)[C@H](CCC(=O)O)NC(=O)[C@H](CC(C)C)NC(=O)[C@H](Cc1ccc(O)cc1)NC(=O)[C@H](CO)NC(=O)[C@H](CO)NC(=O)[C@@H](NC(=O)[C@H](CC(=O)O)NC(=O)[C@H](CO)NC(=O)[C@@H](NC(=O)[C@H](Cc1ccccc1)NC(=O)[C@@H](NC(=O)CNC(=O)[C@H](CCC(=O)O)NC(=O)C(C)(C)NC(=O)[C@@H](N)Cc1cnc[nH]1)[C@@H](C)O)[C@@H](C)O)C(C)C)C(=O)N[C@@H](C)C(=O)N[C@@H](Cc1c[nH]c2ccccc12)C(=O)N[C@@H](CC(C)C)C(=O)N[C@H](C(=O)N[C@@H](CCCNC(=N)N)C(=O)NCC(=O)N[C@@H](CCCNC(=N)N)C(=O)NCC(=O)O)C(C)C", "test": "item: Serious adverse events", "test system": "type 2 diabetes patients", "setting": "dose not given", "how to read": "baseline: subjects", "adverse event incidence": "6.7%"}
{"SMILES": "CC(=O)O[C@H]1C(=O)[C@@]2(C)[C@H]([C@H](OC(=O)c3ccccc3)[C@]3(O)C[C@H](OC(=O)[C@H](O)[C@@H](NC(=O)c4ccccc4)c4ccccc4)C(C)=C1C3(C)C)[C@]1(OC(C)=O)CO[C@@H]1C[C@@H]2O", "test": "item: alanine aminotransferase increased", "test system": "patients with advanced solid tumours", "setting": "intravenous, dose not given, grade 3 and 4, possibly related to drug", "adverse event incidence": "2%"}
{"SMILES": "CC[C@H](C)CCCCC(=O)N[C@@H](CCN)C(=O)N[C@H](C(=O)N[C@@H](CCN)C(=O)N[C@H]1CCNC(=O)[C@H]([C@@H](C)O)NC(=O)[C@H](CCN)NC(=O)[C@H](CCN)NC(=O)[C@H](CC(C)C)NC(=O)[C@@H](Cc2ccccc2)NC(=O)[C@H](CCN)NC1=O)[C@@H](C)O", "test": "item: gastrointestinal disorders", "test system": "all subjects", "setting": "intravenous, 0.75 mg/kg", "adverse event incidence": "86.4%"}
{"SMILES": "FC(F)(F)c1ccc(CNc2ccc(Cc3c[nH]c4ncc(Cl)cc34)cn2)cn1", "test": "item: Rash", "test system": "patients with advanced solid tumours", "setting": "oral, dose not given, all grades, possibly related to drug", "adverse event incidence": "20%"}
{"SMILES": "CC(C)n1c(Nc2cccnc2)nc2cnc(Nc3ccc(N4CCN(C)CC4)cc3)nc21", "test": "item: Hypercalcemia", "test system": "healthy male subjects", "setting": "oral, 150 mg, together with: rifampin", "adverse event incidence": "0%"}
{"SMILES": "O=C1CCc2ccc(OCCCCN3CCN(c4cccc(Cl)c4Cl)CC3)cc2N1", "test": "item: Hypertension", "test system": "genotyped patients, CYP2D6 normal metabolizers", "setting": "dose not given, long-acting oral or depot", "adverse event incidence": "0.8%"}
{"SMILES": "Cc1ccc(Sc2ccccc2N2CCNCC2)c(C)c1", "test": "TEAE vomiting", "test system": "healthy adult men", "setting": "oral, 10 mg single dose, 8 nights, overall", "adverse event incidence": "5%"}
{"note": "Repeated from above:"}
{"SMILES": "Cc1c(Cl)c(C)[n+]([O-])c(Cl)c1-c1noc(-c2cc(O)c(O)c([N+](=O)[O-])c2)n1", "test": "item: Severe severity", "test system": "healthy Chinese subjects", "setting": "oral, 25 mg", "adverse event incidence": "0%"}
